Published values collected from several papers.
Protocols differ between the studies behind these lines. ± marks the error that the study gave.

The tissue uptake of `CCCC[C@H](NC(=O)CNC(=O)CNC(=O)CN1CCN(CC(=O)O)CCN(CC(=O)O)CC1)C(=O)N[C@H]1CC(=O)NCCCC[C@@H](C(N)=O)NC(=O)[C@H](Cc2c[nH]c3ccccc23)NC(=O)[C@H](CCCNC(=N)N)NC(=O)[C@@H](Cc2ccccc2)NC(=O)[C@H](Cc2c[nH]cn2)NC1=O` [technetium-99m labelled] is reported as 0.03 ± 0.03 %ID/g (C57 mouse, lung; iv, 0.037 MBq, 24 h).
With `N=C(N)NCCC[C@@H]1NC(=O)[C@H](CCCCNC(=O)CNC(=O)CNC(=O)CNC(=O)CC[C@H](NC(=O)CNC(=O)CNC(=O)CNC(=O)CN2CCN(CC(=O)O)CCN(CC(=O)O)CCN(CC(=O)O)CC2)C(=O)NCC(=O)NCC(=O)NCC(=O)NCCCC[C@@H]2NC(=O)[C@@H](Cc3ccccc3)NC(=O)[C@H](CC(=O)O)NC(=O)CNC(=O)[C@H](CCCNC(=N)N)NC2=O)NC(=O)[C@@H](Cc2ccccc2)NC(=O)[C@H](CC(=O)O)NC(=O)CNC1=O` [indium-111 labelled] the tissue uptake was 0.39 ± 0.05 %ID/g (female athymic nu/nu mice, muscle; intravenous, 111 kBq, 4 h).
For `CCCC[C@H](NC(=O)CNC(=O)CNC(=O)CN1CCN(CC(=O)O)CCN(CC(=O)O)CCN(CC(=O)O)CC1)C(=O)N[C@H]1CC(=O)NCCCC[C@@H](C(N)=O)NC(=O)[C@H](Cc2c[nH]c3ccccc23)NC(=O)[C@H](CCCNC(=N)N)NC(=O)[C@@H](Cc2ccccc2)NC(=O)[C@H](Cc2c[nH]cn2)NC1=O` [lutetium-177 labelled], the tissue uptake was 8.24 ± 1.51 %ID/g (C57 mouse, female, tumour; intravenous, 0.037 MBq, 24 h).
With `N=C(N)NCCC[C@@H]1NC(=O)[C@H](CCCCNC(=O)CNC(=O)CNC(=O)CNC(=O)CC[C@H](NC(=O)CNC(=O)CNC(=O)CNC(=O)CC[C@H](NC(=O)CN2CCN(CC(=O)O)CCN(CC(=O)O)CCN(CC(=O)O)CC2)C(=O)NCC(=O)NCC(=O)NCC(=O)N[C@@H](CCC(=O)NCC(=O)NCC(=O)NCC(=O)NCCCC[C@@H]2NC(=O)[C@@H](Cc3ccccc3)NC(=O)[C@H](CC(=O)O)NC(=O)CNC(=O)[C@H](CCCNC(=N)N)NC2=O)C(=O)NCC(=O)NCC(=O)NCC(=O)NCCCC[C@@H]2NC(=O)[C@@H](Cc3ccccc3)NC(=O)[C@H](CC(=O)O)NC(=O)CNC(=O)[C@H](CCCNC(=N)N)NC2=O)C(=O)NCC(=O)NCC(=O)NCC(=O)NCCCC[C@@H]2NC(=O)[C@@H](Cc3ccccc3)NC(=O)[C@H](CC(=O)O)NC(=O)CNC(=O)[C@H](CCCNC(=N)N)NC2=O)NC(=O)[C@@H](Cc2ccccc2)NC(=O)[C@H](CC(=O)O)NC(=O)CNC1=O` [indium-111 labelled] the tissue uptake was 8.68 ± 1.42 %ID/g (female athymic nu/nu mice, U87MG tumour; intravenous, 111 kBq, 24 h).
`CC(C)C[C@H](NC(=O)[C@@H](CCCCNC(=O)CCCCCNC(=O)CN1CCN(CC(=O)O)CCN(CC(=O)O)CCN(CC(=O)O)CC1)NC(=O)[C@H](Cc1ccc(O)cc1)NC(=O)[C@H](CO)NC(=O)[C@H](Cc1c[nH]c2ccccc12)NC(=O)[C@H](Cc1cnc[nH]1)NC(=O)[C@@H]1CCC(=O)N1)C(=O)N[C@@H](CCCNC(=N)N)C(=O)N1CCC[C@H]1C(=O)NCC(N)=O` [indium-111 labelled] gave a tissue uptake of 0.22 ± 0.05 %ID/g (female athymic nude mouse, skin; intravenous, 0.037 MBq, 24 h).
`CCCC[C@H](NC(=O)CCCCCCCNC(=O)CN1CCN(CC(=O)O)CCN(CC(=O)O)CC1)C(=O)N[C@H]1CC(=O)NCCCC[C@@H](C(N)=O)NC(=O)[C@H](Cc2c[nH]c3ccccc23)NC(=O)[C@H](CCCNC(=N)N)NC(=O)[C@@H](Cc2ccccc2)NC(=O)[C@H](Cc2c[nH]cn2)NC1=O` [copper-64 labelled] has a tissue uptake of 3.88 ± 0.71 %ID/g (C57 mice, lung; intravenous, 0.37 MBq, 0.5 h).
The tissue uptake of `CC(C)C[C@H](NC(=O)[C@H](Cc1ccc(O)cc1)NC(=O)[C@@H](CCCNC(=N)N)NC(=O)[C@@H](CO)NC(=O)[C@H](Cc1ccccc1)NC(=O)[C@H](CC1CCCCC1)NC(=O)[C@H](CC(=O)O)NC(=O)CN1CCCN2CCN(CCCN(CC(=O)O)CC2)CC1)C(=O)N[C@@H](Cc1c[nH]c2ccccc12)C(=O)N[C@@H](CO)C(=O)O` [copper-64 labelled] is reported as 15 ± 1 %ID/g (female NMRI nude mice, kidney; 1 h p.i.).
`N=C(N)NCCC[C@@H]1NC(=O)[C@H](CCCCNC(=O)CC[C@H](NC(=O)CC[C@H](NC(=O)CN2CCN(CC(=O)O)CCN(CC(=O)O)CCN(CC(=O)O)CC2)C(=O)N[C@@H](CCC(=O)NCCCC[C@@H]2NC(=O)[C@@H](Cc3ccccc3)NC(=O)[C@H](CC(=O)O)NC(=O)CNC(=O)[C@H](CCCNC(=N)N)NC2=O)C(=O)NCCCC[C@@H]2NC(=O)[C@@H](Cc3ccccc3)NC(=O)[C@H](CC(=O)O)NC(=O)CNC(=O)[C@H](CCCNC(=N)N)NC2=O)C(=O)NCCCC[C@@H]2NC(=O)[C@@H](Cc3ccccc3)NC(=O)[C@H](CC(=O)O)NC(=O)CNC(=O)[C@H](CCCNC(=N)N)NC2=O)NC(=O)[C@@H](Cc2ccccc2)NC(=O)[C@H](CC(=O)O)NC(=O)CNC1=O` [indium-111 labelled] has a tissue uptake of 0.9 ± 0.18 %ID/g (female athymic nu/nu mice, heart; intravenous, 4 h).
The tissue uptake of `CCCC[C@H](NC(=O)COCCOCCNC(=O)CN1CCN(CC(=O)O)CCN(CC(=O)O)CC1)C(=O)N[C@H]1CC(=O)NCCCC[C@@H](C(N)=O)NC(=O)[C@H](Cc2c[nH]c3ccccc23)NC(=O)[C@H](CCCNC(=N)N)NC(=O)[C@@H](Cc2ccccc2)NC(=O)[C@H](Cc2c[nH]cn2)NC1=O` [copper-64 labelled] is reported as 0.27 ± 0.1 %ID/g (C57 mice, blood; intravenous, 0.37 MBq, 24 h).

Some of these lines once more:
The tissue uptake of `CC(C)C[C@H](NC(=O)[C@H](Cc1ccc(O)cc1)NC(=O)[C@@H](CCCNC(=N)N)NC(=O)[C@@H](CO)NC(=O)[C@H](Cc1ccccc1)NC(=O)[C@H](CC1CCCCC1)NC(=O)[C@H](CC(=O)O)NC(=O)CN1CCCN2CCN(CCCN(CC(=O)O)CC2)CC1)C(=O)N[C@@H](Cc1c[nH]c2ccccc12)C(=O)N[C@@H](CO)C(=O)O` [copper-64 labelled] is reported as 15 ± 1 %ID/g (female NMRI nude mice, kidney; 1 h p.i.).
